Experimental data from different studies.
Protocols differ between the studies behind these lines.
UniProt Q8NE63, sequence (whole entry, looked up): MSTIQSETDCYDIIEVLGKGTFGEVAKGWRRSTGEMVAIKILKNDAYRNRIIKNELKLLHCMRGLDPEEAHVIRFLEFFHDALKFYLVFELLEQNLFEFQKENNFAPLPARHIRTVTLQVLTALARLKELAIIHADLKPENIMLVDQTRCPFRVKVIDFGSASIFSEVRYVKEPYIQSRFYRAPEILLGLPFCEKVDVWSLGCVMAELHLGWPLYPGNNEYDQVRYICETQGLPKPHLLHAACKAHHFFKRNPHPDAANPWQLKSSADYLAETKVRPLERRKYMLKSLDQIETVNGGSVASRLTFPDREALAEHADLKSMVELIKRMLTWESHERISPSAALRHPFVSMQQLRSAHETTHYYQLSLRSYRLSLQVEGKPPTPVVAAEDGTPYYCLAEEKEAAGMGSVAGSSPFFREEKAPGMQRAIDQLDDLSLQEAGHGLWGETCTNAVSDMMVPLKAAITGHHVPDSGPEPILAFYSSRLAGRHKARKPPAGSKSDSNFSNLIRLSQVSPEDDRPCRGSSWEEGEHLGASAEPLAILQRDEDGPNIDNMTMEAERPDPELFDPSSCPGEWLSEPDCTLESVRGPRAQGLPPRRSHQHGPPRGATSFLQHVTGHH
UniProt P21675, sequence (whole entry, looked up): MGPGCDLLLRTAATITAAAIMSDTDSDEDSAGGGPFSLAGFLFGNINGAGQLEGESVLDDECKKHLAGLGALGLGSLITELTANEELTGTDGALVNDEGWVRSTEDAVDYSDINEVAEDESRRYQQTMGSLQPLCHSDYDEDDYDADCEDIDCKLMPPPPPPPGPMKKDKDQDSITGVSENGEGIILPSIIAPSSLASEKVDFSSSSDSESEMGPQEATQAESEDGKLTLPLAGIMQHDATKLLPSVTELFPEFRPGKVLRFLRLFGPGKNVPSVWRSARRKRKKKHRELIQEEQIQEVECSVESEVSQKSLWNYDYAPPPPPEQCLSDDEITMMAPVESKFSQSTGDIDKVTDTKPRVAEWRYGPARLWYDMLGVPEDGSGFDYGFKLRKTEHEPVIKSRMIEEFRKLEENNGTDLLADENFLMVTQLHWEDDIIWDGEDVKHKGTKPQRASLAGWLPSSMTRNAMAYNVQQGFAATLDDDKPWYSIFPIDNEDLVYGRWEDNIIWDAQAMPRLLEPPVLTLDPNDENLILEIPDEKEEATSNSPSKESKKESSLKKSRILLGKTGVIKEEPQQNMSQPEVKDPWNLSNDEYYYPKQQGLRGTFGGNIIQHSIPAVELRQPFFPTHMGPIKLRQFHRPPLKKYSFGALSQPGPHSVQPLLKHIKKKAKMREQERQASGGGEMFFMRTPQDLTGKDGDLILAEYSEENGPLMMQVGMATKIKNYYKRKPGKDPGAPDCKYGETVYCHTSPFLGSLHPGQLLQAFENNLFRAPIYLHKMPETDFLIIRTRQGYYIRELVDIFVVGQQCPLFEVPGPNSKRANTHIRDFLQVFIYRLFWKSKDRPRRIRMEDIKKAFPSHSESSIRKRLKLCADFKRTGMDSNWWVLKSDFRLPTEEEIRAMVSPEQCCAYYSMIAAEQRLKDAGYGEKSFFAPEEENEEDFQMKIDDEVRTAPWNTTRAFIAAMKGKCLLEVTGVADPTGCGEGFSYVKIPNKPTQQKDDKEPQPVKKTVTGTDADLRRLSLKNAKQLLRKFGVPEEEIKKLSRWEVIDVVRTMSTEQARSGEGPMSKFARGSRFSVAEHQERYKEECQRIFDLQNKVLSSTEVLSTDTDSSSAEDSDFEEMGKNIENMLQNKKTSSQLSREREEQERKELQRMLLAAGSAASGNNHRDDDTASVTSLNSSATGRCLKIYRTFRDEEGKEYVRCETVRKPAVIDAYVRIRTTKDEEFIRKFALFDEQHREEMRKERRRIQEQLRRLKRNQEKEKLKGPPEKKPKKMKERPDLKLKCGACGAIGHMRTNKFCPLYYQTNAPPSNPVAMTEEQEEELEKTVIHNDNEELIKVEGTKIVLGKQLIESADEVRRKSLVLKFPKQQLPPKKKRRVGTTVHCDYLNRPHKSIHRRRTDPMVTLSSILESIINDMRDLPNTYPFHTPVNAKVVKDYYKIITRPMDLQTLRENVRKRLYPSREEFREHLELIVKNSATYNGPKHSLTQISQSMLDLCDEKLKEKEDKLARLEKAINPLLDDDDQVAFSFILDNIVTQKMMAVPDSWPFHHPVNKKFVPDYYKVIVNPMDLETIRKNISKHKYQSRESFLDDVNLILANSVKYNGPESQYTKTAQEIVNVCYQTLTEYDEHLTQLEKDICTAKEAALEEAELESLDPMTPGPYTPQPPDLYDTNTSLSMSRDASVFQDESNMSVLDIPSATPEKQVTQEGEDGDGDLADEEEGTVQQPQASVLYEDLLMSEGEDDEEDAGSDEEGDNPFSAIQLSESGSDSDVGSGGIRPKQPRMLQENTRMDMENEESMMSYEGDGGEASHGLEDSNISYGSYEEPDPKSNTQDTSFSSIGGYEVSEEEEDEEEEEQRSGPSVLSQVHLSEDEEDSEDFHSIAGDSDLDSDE

SMILES | target or system | test | conditions | how to read | measurement | result
COc1cc(Nc2nccc(-c3cnn4nc(OC)ccc34)n2)cc(C(F)(F)F)c1 | Tyrosine-protein kinase ABL1, phosphorylated (ABL1, Homo sapiens, UniProt P00519, H396P) | binding | 1 µM |  | remaining binding | 100%
CNC1C[S+]2CC[S+]3CC[S+](C1)[Ru-4]321([N]=C=S)[n]2c3ccc(OC)cc3c3c4c(c5cc(F)c[n+]1c5c32)C(=O)NC4=O (stereo not shown) | Tyrosine-protein kinase ABL1, non-phosphorylated (ABL1, Homo sapiens, UniProt P00519, F317L) | KinomeScan | 0.1 µM | baseline: untreated | remaining binding | 100%
CC(=O)N1c2ccc(-c3ccc(CNC(=O)c4cn5cc(-c6cnc(N)nc6)nc(N6CCOCC6)c5n4)cc3)cc2CC[C@@H]1C | BPTF (Homo sapiens, UniProt Q12830) | binding, competition with immobilised ligand | 10 µM |  | remaining binding | 14%
Cc1cc(NC(=O)[C@H](O)c2cc(F)cc(F)c2)ccc1-c1cnc(N)c(C(=O)NC(C)C)c1 | HIPK4 (Homo sapiens, UniProt Q8NE63) | binding, competition with immobilised ligand | 10 µM |  | remaining binding | 24%
CCN1CCN(Cc2ccc(C(=O)Nc3ccc(C)c(NCc4cnc5[nH]ccc5c4OC)c3)cc2C(F)(F)F)CC1 | Tyrosine-protein kinase ABL1, non-phosphorylated (ABL1, Homo sapiens, UniProt P00519, H396P) | binding, competition with immobilised ligand | 1 µM |  | remaining binding | 0.8%
CNC(=O)C1CCN(c2cc(C)c(F)cc2NC(=O)c2ccc(-c3cc(O)ccc3C)c(C)c2)CC1 | Tyrosine-protein kinase ABL1, non-phosphorylated (ABL1, Homo sapiens, UniProt P00519, T315I) | binding, competition with immobilised ligand | 1 µM |  | remaining binding | 100%
Cn1cc(-c2cc(N3CCCCS3(=O)=O)ccc2N[C@H]2CC[C@H](C)CC2)c2cc[nH]c2c1=O (stereo in doubt) | Transcription initiation factor TFIID subunit 1, BD2 (TAF1, Homo sapiens, UniProt P21675) | binding, competition with immobilised ligand | 1 µM |  | remaining binding | 97%
Cc1ncsc1-c1ccc(C(C)NC(=O)C2CC(O)CN2C(=O)C(NC(=O)CCCCCCCCCCN2CCCC(Nc3ncc(Cl)c(Nc4ccccc4S(=O)(=O)C(C)C)n3)C2)C(C)(C)C)cc1 (stereo not shown) | 22Rv1 | RNA-seq, item: MGAT2 mRNA | concentration not given | baseline: DMSO | log2 fold change | -1.11
Cc1cnc2nc1Nc1cccc(c1)COC/C=C/COCc1cc(ccc1OCCN1CCOCC1)N2 | EGFR (Homo sapiens, UniProt P00533, L858R/T790M) | binding | 0.1 µM |  | remaining binding | 35%
CC(C)=CC1OC(C)(C)C2C=C3C(=O)C(Cl)=CC(O)C3C3C(O)C4OC4C(=O)C132 (stereo not shown) | FLT3 (Homo sapiens, UniProt P36888, D835Y) | cell-free assay, competition with immobilised ligand | 10 µM |  | remaining binding | 77%
